Measurements of several laboratories.
Compare with care: the assays were run in different laboratories. ± marks the error that the study gave.

By UniProt entry, the sequences of proteins in these tests, tags left out. Where a name states a change or a piece, a line headed by the entry shows the natural chain unless it says otherwise. Residues count along the entry.
UniProt P54760, whole entry, looked up: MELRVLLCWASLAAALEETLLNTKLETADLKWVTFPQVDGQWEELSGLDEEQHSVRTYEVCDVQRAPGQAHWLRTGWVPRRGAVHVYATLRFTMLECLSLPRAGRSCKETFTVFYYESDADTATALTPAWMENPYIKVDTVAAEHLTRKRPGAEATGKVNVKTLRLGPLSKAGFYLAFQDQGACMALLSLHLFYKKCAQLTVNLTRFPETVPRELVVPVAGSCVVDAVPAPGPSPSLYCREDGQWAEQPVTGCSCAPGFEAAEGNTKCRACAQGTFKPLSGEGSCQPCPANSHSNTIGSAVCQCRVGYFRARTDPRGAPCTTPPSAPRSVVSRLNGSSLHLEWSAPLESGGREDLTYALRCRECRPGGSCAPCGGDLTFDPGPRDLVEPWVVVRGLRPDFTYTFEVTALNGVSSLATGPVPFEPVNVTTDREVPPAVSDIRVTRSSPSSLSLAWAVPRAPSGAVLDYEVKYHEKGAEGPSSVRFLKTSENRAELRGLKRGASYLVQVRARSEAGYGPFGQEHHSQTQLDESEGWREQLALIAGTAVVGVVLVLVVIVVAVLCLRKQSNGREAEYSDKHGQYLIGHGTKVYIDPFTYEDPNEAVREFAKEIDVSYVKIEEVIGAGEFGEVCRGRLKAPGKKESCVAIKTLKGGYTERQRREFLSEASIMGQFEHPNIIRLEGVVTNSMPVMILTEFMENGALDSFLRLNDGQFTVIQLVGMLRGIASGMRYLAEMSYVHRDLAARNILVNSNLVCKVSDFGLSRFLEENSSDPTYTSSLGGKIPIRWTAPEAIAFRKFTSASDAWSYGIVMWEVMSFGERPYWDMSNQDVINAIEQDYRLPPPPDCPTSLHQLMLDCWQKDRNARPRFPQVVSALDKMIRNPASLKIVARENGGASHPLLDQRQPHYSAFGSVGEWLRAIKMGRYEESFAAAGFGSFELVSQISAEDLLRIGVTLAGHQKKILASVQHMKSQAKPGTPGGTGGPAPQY
UniProt P22307, 425-547 limits assumed: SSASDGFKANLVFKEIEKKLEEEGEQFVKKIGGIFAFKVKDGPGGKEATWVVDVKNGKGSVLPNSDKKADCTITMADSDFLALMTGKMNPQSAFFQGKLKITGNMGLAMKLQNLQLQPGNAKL
UniProt P94556, whole entry: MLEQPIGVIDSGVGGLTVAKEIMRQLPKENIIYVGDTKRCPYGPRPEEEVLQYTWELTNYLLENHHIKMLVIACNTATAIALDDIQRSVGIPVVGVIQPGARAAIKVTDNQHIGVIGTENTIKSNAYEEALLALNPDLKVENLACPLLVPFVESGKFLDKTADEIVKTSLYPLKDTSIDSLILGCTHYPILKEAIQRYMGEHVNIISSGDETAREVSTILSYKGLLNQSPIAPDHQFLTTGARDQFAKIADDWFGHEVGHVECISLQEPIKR
UniProt P21728, whole entry: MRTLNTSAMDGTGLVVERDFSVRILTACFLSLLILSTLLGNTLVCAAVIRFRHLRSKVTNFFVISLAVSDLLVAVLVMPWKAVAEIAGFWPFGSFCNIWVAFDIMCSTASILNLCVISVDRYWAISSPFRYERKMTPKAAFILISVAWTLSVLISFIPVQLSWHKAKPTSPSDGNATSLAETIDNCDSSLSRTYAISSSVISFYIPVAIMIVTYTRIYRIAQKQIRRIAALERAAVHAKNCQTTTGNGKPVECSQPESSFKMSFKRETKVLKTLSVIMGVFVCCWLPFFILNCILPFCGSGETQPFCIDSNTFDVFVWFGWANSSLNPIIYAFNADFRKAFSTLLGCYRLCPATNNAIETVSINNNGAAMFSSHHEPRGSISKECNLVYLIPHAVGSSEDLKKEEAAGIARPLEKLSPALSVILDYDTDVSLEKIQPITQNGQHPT
UniProt Q9UHY1, whole entry: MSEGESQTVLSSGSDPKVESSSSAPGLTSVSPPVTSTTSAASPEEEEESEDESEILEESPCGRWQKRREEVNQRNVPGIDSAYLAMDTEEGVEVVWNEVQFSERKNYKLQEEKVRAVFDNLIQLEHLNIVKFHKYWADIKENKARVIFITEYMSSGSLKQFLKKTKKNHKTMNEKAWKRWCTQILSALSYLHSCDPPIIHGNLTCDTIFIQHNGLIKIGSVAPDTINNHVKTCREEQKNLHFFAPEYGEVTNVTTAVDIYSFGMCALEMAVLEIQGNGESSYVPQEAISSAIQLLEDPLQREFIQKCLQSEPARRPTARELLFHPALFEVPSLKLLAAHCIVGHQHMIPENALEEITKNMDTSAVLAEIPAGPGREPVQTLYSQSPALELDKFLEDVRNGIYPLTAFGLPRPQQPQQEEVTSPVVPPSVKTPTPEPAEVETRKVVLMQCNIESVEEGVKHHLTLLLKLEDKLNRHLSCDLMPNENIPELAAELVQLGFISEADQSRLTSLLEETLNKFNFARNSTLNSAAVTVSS
UniProt Q15391, whole entry: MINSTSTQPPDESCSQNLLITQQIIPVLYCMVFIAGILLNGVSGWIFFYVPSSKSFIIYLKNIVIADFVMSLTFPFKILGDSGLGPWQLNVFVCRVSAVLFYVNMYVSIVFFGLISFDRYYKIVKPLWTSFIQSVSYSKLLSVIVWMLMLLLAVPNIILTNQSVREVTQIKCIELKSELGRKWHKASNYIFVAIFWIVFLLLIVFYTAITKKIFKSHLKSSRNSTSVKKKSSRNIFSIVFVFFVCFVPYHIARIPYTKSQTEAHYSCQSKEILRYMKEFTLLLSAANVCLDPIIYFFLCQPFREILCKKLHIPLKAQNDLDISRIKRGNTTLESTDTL
UniProt P40261, whole entry: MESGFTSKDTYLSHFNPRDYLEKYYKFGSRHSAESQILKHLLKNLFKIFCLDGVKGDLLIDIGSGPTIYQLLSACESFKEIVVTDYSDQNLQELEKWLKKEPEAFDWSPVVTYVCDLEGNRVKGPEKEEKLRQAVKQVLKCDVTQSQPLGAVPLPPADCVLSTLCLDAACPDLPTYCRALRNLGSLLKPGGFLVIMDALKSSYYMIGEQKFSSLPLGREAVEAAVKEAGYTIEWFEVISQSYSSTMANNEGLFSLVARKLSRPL
UniProt P34972, whole entry: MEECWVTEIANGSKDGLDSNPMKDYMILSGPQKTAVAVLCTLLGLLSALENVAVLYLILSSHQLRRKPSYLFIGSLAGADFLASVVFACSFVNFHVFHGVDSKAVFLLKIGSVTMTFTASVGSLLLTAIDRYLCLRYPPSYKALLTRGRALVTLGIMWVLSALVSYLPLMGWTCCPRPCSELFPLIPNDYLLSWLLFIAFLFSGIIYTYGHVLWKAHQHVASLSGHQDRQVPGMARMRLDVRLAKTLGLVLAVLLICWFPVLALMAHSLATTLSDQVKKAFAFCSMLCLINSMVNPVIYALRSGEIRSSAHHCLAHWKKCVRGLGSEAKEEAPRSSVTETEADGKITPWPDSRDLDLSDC

The inhibition of `CC#C/C(=N\OC[C@H]1COCCN1)c1ccc2ncnc(Nc3ccc(OCc4cccc(F)c4)c(Cl)c3)c2c1` is reported as 10.9% (Ephrin type-B receptor 4 (EPHB4, Homo sapiens, UniProt P54760); kinase activity; 10 µM).
With `COc1cc([N+](=O)[O-])cc2c1NC(c1ccc(Br)cc1)=NO2` the Ki was 3.9 ± 0.1 µM (Sterol carrier protein 2 (Homo sapiens, UniProt P22307); binding, fluorescence; together with: NBD-stearic acid 500 nM).
For `O=C(O)c1cc(F)cc2[nH]c(S(=O)(=O)O)nc12`, the Ki was 2.5 ± 0.4 µM (racE (Bacillus subtilis, UniProt P94556)).
The Ki of `Cc1cc(O)c2c(c1)C(=O)c1cc(O)cc(O)c1C2=O` is reported as 508 ± 47 µM (dengue virus 2 NS2B-NS3 protease; inhibitor; TSV01).
`CC1(C)S[C@@H]2CS[C@@H](CS)N2[C@H]1C(=O)O` has a Ki of 0.1 ± 0.03 µM (Metallo-beta-lactamase VIM-2 (VIM-2, Escherichia coli, UniProt Q5U7L7); nitrocefin hydrolysis, slow-binding inhibitor; Pseudomonas aeruginosa; together with: nitrocefin).
`CCCN1CCN(c2ccc3c(c2)C2CC3CCN2C(=O)OCc2ccccc2)CC1` (stereo not shown) has a Ki of > 10 µM (D(1A) dopamine receptor (DRD1, Homo sapiens, UniProt P21728); binding, radioligand binding).
For `CCN1CCN(Cc2ccc(NC(=O)c3ccc(C)c(/C=C/c4cnc5[nH]ccc5c4OC)c3)cc2C(F)(F)F)CC1`, “log2 fold change” read 0.285 (Nuclear receptor-binding protein (NRBP1, Homo sapiens, UniProt Q9UHY1); kinase-CDC37 interaction, inhibitor; human cells; 5 µM; baseline: vehicle).
For `O=c1ccn([C@@H]2O[C@H](COP(=O)(O)OP(=O)(O)O[C@H]3O[C@H](CO)[C@@H](O)[C@H](O)[C@H]3O)[C@@H](O)[C@H]2O)c(=S)[nH]1`, the Ki was 0.34 ± 0.04 µM (P2Y purinoceptor 14 (P2RY14, Homo sapiens, UniProt Q15391); flow cytometry; CHO cells expressing target; 30 min, together with: fluorescent tracer 50 nM).
For `NC(=O)c1cccc(CCN(CC[C@H](N)C(=O)O)C[C@H]2O[C@@H](n3cnc4c(N)ncnc43)[C@H](O)[C@@H]2O)c1`, the Ki was 11.3 ± 1.8 µM (Nicotinamide N-methyltransferase (NNMT, Homo sapiens, UniProt P40261); binding, fluorescence polarisation competition; 30 min, room temperature, enzyme 0.5 µM, together with: fluorescent probe 5 nM).
The Ki of `CCN(CC)c1ccc(CN(c2ccc(C)cc2)S(=O)(=O)c2ccc(OC)cc2)cc1` is reported as 0.0005 µM (Cannabinoid receptor 2 (CNR2, Homo sapiens, UniProt P34972); inverse agonist, radioligand competition binding).

Some of these lines once more:
For `O=c1ccn([C@@H]2O[C@H](COP(=O)(O)OP(=O)(O)O[C@H]3O[C@H](CO)[C@@H](O)[C@H](O)[C@H]3O)[C@@H](O)[C@H]2O)c(=S)[nH]1`, the Ki was 0.34 ± 0.04 µM (P2Y purinoceptor 14 (P2RY14, Homo sapiens, UniProt Q15391); flow cytometry; CHO cells expressing target; 30 min, together with: fluorescent tracer 50 nM).
